Measured values gathered from unrelated publications.
Several values in a cell are separate wells, animals, samples, runs or records. ± marks the error that the study gave.

C[C@H](NC(=O)c1c(C(F)F)nn(C)c1Oc1cccc(C(F)(F)F)c1)c1ccc(C(=O)O)cc1 gave a not evaluable of 37.5% (irRECIST; human, advanced tumours; 125 mg; best overall response).
For C=CC(=O)N1CCC(c2ccc(C(N)=O)c(-c3ccc(Oc4ccccc4)cc3)n2)CC1, the CR was 28.3% (tumour response, Lugano classification; patients with relapsed/refractory MCL; dose not given, investigator assessed, 10.5 months follow-up).
For Cc1sc2c(c1C)C(c1ccc(Cl)cc1)=N[C@@H](CC(=O)NCCCCCCCCNC(=O)COc1cccc3c1C(=O)N(C1CCC(=O)NC1=O)C3=O)c1nnc(C)n1-2 (stereo partly drawn), the PD-L1+ cells was 1.28% and 0.92% and 1.16% and 0.98% (flow cytometry; mice, 4T1 tumour, tumour; dose not given).
For COc1ccc(F)cc1C(=O)NCc1ccc(-c2nn([C@@H](C)C(F)(F)F)c(N)c2C(N)=O)cc1, “best overall response PD” read 3% (relapsed/refractory CLL patients; dose not given, monotherapy).
CC(C)[C@H](C(=O)Nc1ccc(C(=O)NO)cc1)c1ccccc1: “tumour growth rate” 12.3 %/year (volumetric MRI; human, right vagal schwannoma; dose not given, day 995).
COc1nnc2ccc(N3CCC(c4ccc(OCCN5CCN(C)C(=O)[C@H]5C)cc4)CC3)nn12: “time to return to baseline” 24 h (qPCR, measured: BRD4 target genes HIST2H2BF, HEXIM1, CD274, CCR2; human, peripheral blood; concentration not given).
With CNCc1cc(-c2ccccc2F)n(S(=O)(=O)c2cccnc2)c1 the inhibition was 59% (indomethacin-induced gastric lesions; rat; oral, 2 mg/kg; baseline: vehicle).
The inhibition of CN[C@@H]1COc2c(S(=O)(=O)NC(=O)Nc3c4c(cc5c3CCC5)CCC4)cnn2C1 is reported as 99.4% (measured: IL-1β; human participants, whole blood ex vivo; 900 mg twice daily, multiple doses, 96 h, together with: LPS/ATP; baseline: baseline).
Cc1cn(-c2ccc3n(c2=O)CCN([C@@H](C)[C@@H]2CC[C@H](c4cc(F)c(Cl)cc4C(F)(F)F)O2)C3=O)cn1: “change in CSF level” 139% (measured: Aβ37; human, cerebrospinal fluid; 150 mg single dose, Tmax; baseline: placebo-adjusted baseline).
Under “best response stable disease”, CN[C@@H](C)C(=O)N[C@H]1CN(S(=O)(=O)c2cccc(S(=O)(=O)N3CC[C@H]4CC[C@@H](C(=O)NC(c5ccccc5)c5ccccc5)N4C(=O)[C@@H](NC(=O)[C@H](C)NC)C3)c2)CC[C@H]2CC[C@@H](C(=O)NC(c3ccccc3)c3ccccc3)N2C1=O is recorded as 66.7% (RECIST 1.1; advanced pancreatic cancer patients; dose not given, no prior therapy, together with: AG).
The sarcomere length of CC(C)NCC(O)c1ccc(O)c(O)c1 (stereo not drawn) is reported as 1.72 µm (ventricular cardiomyocytes, C57BL/6 mouse; dose not given, 0.08 s).
For COc1ccc2c(c1)CN(Cc1ccc(C(=O)O)cc1)CCS2, “forelimb grip strength” read 0.159 ± 0.008 kgf (exercised mdx mice; 50 mg/kg, 2 weeks).
OC(CCN1CCCCC1)(c1ccccc1)C1CC2C=CC1C2 (stereo not drawn) — result for “theta power, EEG, Fz Cz, change in”: 11.9% (resting-state EEG; healthy elderly humans; oral, 2 mg, eyes open, LS mean; baseline: baseline).
With Cn1cc([C@H]2C[C@H]3CSC(N)=N[C@@]3(c3ccc(F)cc3F)CO2)cn1 the Aβ42 level was 0.31 ng/g (measured: Aβx-42; Mus musculus wild-type, brain; subcutaneous, 50 mg/kg, 9 h).
CCc1c(C)nc(-c2ccc(Cl)s2)nc1Nc1ccc(CC(=O)O)cc1 — result for protein level: “increased” (measured: UCP1; mice, chronic ethanol plus binge, brown adipose tissue; intraperitoneal, 0.3 mg/kg daily, ethanol diet 4 weeks, dosed last two; baseline: vehicle).
N#Cc1ccc2c(c1)[C@H]1CCCN(C(=O)c3ccc4[nH]cnc4c3)[C@H]1C2 has a plasma level of 4.16 nmol/L (measured: androstenedione; human female, Phase II trial; oral, 80 mg once daily, last treatment, HPA axis, mean).
NC(=O)c1cnc2[nH]ccc2c1N[C@@H]1[C@@H]2CC3C[C@H]1C[C@@](O)(C3)C2: “change from baseline” -0.37% (flow cytometry, measured: memory T cells (CD3+ CD45RA-); Japanese healthy subjects, peripheral blood; oral, 30 mg twice daily, day 4).
Under “log2 fold change”, N#Cc1ccc2c(-c3ccncc3)c(-c3ccc(F)cc3)nn2c1 is recorded as -0.188 (kinase binding, competitor, MIB/MS competition, measured: HST7; Candida albicans cell lysate; 10 µM; baseline: DMSO).
